{"data": "Results collected from several papers", "note": "A part holds a random share of what one study measured.", "UniProt Q9Y4K4, sequence (whole entry, looked up)": "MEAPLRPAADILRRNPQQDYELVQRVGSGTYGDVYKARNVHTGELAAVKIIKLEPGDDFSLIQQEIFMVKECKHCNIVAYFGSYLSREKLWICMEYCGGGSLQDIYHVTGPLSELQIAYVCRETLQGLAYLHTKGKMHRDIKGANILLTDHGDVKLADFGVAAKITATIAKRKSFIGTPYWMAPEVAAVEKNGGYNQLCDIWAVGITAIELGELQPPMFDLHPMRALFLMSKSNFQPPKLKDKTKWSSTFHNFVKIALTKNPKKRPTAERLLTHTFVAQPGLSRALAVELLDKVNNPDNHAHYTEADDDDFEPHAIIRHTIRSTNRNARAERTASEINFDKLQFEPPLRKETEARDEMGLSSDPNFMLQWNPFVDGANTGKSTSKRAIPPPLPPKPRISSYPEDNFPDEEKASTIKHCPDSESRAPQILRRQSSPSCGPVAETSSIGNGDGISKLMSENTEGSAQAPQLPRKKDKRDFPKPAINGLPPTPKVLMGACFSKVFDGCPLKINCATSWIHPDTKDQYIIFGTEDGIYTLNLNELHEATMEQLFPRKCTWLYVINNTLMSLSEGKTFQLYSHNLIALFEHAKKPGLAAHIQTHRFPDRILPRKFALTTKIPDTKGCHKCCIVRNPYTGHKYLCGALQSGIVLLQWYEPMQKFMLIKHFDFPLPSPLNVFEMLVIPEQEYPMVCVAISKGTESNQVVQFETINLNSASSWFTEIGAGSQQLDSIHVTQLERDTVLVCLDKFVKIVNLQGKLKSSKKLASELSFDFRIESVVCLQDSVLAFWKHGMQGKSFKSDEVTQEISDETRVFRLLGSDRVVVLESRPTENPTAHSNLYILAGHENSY", "UniProt P49841, sequence (whole entry, looked up)": "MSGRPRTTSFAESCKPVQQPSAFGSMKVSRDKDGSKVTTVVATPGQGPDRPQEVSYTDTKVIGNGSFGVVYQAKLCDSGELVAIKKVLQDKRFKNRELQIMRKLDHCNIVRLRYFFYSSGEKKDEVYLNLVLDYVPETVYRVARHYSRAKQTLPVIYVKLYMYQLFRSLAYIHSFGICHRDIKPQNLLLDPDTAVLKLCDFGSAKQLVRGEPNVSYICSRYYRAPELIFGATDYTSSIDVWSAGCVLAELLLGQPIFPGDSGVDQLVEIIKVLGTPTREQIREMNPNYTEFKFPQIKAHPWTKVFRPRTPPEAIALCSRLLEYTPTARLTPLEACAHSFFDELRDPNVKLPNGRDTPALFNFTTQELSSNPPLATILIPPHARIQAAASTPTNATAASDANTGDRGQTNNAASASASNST", "UniProt Q8WTQ7, sequence (whole entry, looked up)": "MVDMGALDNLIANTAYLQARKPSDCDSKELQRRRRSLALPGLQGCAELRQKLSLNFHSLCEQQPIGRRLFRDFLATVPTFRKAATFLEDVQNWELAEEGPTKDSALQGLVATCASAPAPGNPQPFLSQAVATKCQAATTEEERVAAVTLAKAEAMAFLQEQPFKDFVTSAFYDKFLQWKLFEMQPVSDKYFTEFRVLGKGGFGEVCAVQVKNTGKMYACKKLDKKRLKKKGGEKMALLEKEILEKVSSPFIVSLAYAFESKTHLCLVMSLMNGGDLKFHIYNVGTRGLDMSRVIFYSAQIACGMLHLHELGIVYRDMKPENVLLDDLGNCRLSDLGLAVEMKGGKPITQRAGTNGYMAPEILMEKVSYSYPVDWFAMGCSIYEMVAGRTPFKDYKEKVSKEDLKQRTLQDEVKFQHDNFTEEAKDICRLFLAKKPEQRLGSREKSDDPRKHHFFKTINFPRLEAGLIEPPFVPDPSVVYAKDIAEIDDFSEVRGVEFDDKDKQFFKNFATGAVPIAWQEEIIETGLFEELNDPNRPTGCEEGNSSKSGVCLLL", "UniProt P36507, sequence (whole entry, looked up)": "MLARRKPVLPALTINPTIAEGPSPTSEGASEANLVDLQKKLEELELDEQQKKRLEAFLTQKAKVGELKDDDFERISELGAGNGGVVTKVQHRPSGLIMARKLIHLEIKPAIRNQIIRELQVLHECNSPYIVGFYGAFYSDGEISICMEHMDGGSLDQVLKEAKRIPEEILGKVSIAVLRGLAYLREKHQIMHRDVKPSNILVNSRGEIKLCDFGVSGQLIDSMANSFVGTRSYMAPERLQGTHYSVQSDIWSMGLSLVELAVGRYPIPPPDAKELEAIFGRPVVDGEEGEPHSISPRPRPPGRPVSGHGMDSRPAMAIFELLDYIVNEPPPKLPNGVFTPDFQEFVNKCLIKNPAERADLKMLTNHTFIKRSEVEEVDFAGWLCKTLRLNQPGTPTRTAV", "UniProt P51812, sequence (whole entry, looked up)": "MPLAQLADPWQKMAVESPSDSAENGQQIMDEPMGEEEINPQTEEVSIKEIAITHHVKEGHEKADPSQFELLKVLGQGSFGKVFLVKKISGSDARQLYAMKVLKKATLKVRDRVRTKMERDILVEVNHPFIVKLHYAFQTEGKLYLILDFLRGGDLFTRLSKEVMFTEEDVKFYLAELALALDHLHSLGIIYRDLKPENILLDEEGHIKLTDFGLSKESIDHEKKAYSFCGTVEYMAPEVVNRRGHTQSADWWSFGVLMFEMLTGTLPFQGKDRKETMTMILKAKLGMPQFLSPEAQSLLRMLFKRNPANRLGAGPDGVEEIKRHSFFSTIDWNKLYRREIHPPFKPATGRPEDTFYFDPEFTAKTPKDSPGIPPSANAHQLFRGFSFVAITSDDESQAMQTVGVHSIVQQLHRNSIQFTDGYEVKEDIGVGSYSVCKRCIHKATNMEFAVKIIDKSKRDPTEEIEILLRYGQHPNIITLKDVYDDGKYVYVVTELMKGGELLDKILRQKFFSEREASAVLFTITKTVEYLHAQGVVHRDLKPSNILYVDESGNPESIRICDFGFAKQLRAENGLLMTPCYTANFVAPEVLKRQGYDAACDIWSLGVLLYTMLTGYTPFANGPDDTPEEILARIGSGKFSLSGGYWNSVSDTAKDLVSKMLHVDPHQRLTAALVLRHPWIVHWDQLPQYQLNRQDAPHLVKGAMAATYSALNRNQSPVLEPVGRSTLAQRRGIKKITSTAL", "UniProt P11362, sequence (whole entry, looked up)": "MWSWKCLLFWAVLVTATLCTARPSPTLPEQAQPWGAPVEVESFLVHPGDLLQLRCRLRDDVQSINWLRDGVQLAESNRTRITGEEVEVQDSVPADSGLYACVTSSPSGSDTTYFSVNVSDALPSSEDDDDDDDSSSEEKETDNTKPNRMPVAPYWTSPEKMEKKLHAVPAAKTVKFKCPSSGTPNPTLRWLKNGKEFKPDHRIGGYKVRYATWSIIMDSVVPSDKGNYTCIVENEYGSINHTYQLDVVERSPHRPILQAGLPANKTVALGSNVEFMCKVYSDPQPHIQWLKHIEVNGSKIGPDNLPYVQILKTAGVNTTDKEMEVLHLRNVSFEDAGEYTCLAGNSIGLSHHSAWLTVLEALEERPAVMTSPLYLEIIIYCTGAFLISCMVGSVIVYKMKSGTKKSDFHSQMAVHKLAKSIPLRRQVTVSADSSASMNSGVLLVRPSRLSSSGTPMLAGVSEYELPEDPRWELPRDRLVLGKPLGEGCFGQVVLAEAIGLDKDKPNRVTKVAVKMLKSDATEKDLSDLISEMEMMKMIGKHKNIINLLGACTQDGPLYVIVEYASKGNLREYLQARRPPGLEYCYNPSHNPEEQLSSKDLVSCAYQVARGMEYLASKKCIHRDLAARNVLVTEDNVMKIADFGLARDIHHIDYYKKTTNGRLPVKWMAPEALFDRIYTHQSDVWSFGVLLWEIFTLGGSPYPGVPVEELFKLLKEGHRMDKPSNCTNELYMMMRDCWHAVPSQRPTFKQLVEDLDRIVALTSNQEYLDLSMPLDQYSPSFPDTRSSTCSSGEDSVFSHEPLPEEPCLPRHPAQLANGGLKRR", "UniProt P42685, sequence (whole entry, looked up)": "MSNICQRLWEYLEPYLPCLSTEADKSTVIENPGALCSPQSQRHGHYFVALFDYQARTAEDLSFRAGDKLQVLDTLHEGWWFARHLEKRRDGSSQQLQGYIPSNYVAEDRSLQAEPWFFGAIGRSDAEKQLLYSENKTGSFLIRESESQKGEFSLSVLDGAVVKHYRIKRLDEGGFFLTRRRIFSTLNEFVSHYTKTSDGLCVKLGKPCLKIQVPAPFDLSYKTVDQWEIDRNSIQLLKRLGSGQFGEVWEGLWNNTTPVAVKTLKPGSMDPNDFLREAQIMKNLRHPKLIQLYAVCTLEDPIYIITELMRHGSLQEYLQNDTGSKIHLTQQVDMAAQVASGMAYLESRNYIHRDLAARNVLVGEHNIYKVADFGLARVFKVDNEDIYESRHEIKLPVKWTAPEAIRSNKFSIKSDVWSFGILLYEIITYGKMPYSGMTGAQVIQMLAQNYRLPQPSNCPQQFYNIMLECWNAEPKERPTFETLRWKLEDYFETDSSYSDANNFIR", "UniProt Q15349, sequence (whole entry, looked up)": "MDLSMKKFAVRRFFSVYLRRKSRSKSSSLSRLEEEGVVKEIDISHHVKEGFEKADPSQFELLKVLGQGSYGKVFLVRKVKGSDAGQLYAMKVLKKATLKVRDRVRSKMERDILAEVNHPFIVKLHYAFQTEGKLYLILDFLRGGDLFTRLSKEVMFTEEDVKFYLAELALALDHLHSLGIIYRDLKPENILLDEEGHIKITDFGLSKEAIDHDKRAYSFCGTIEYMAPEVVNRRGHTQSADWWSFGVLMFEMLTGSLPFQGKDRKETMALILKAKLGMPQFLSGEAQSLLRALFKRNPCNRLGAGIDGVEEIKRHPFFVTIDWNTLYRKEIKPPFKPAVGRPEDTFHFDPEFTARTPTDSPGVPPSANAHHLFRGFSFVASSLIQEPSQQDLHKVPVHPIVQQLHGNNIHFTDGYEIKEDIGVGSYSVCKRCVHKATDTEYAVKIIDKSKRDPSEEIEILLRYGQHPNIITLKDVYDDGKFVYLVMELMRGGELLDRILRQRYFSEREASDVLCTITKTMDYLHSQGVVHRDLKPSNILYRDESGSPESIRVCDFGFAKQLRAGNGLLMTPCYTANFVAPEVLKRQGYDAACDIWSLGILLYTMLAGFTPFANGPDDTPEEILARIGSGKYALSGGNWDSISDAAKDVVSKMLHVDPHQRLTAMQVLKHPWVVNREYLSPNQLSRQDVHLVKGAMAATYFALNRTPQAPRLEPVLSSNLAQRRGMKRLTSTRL"}
{"data": "Block 1", "SMILES": "COc1cc(-c2cn(C3CCc4ccccc4N(CC(F)(F)F)C3=O)nn2)ccc1-n1ccc(C)n1 (stereo not shown)", "read-out": "cell-free assay", "method": "competition with immobilised ligand", "tested at": "1 µM"}
{"target": "PIK3C2B (Homo sapiens, UniProt O00750)", "remaining binding": "100%"}
{"target": "Ribosomal protein S6 kinase alpha-3, N-terminal kinase domain (RPS6KA3, Homo sapiens, UniProt P51812)", "remaining binding": "97%"}
{"target": "MAP4K5 (Homo sapiens, UniProt Q9Y4K4)", "remaining binding": "100%"}
{"target": "PIKFYVE (Homo sapiens, UniProt Q9Y2I7)", "remaining binding": "100%"}
{"target": "Tyrosine-protein kinase ABL1, phosphorylated (ABL1, Homo sapiens, UniProt P00519, M351T)", "remaining binding": "64%"}
{"target": "HIPK2 (Homo sapiens, UniProt Q9H2X6)", "remaining binding": "82%"}
{"data": "Block 2", "organism": "Sarcocystis neurona", "read-out": "parasite growth", "tested at": "10 µM", "time": "96 h", "setting": "secondary screen"}
{"Compound": "CNC(=C[N+](=O)[O-])NCCSCc1ccc(CN(C)C)o1", "inhibition [%]": -12.3}
{"Compound": "Cc1occc(=O)c1O", "inhibition [%]": -23}
{"Compound": "CN(C)CCCN1c2ccccc2CCc2ccc(Cl)cc21", "inhibition [%]": -37.9}
{"Compound": "CC(=O)OCC(=O)[C@@]1(O)CC[C@H]2[C@@H]3C[C@H](C)C4=CC(=O)C=C[C@]4(C)[C@H]3[C@@H](O)C[C@@]21C", "inhibition [%]": -20.7}
{"Compound": "NS(=O)(=O)Cc1noc2ccccc12", "inhibition [%]": -9.7}
{"Compound": "O=C(c1ccc(OCCN2CCCCC2)cc1)c1c(-c2ccc(O)cc2)sc2cc(O)ccc12", "inhibition [%]": -25.7}
{"Compound": "CN(C)CCOC(C)(c1ccccc1)c1ccccn1 (stereo not shown)", "inhibition [%]": -24}
{"Compound": "NCC(=O)CCC(=O)O", "inhibition [%]": -12.3}
{"data": "Block 3", "Structure (SMILES)": "COc1cc2ncnc(Nc3ccc(O)c(Br)c3)c2cc1OC", "read-out": "enzyme activity", "mode": "inhibitor", "tested at": "0.5 µM", "baseline": "control"}
{"target": "FGFR3 (Homo sapiens, UniProt P22607)", "remaining activity": "98.8%"}
{"target": "FRK (Homo sapiens, UniProt P42685)", "remaining activity": "74.7%"}
{"target": "RPS6KA2 (Homo sapiens, UniProt Q15349)", "remaining activity": "63.6%"}
{"target": "TBK1 (Homo sapiens, UniProt Q9UHD2)", "remaining activity": "84.7%"}
{"target": "GSK3B (Homo sapiens, UniProt P49841)", "remaining activity": "92%"}
{"target": "GRK7 (Homo sapiens, UniProt Q8WTQ7)", "remaining activity": "96.4%"}
{"target": "ULK2 (Homo sapiens, UniProt Q8IYT8)", "remaining activity": "104%"}
{"target": "MAP3K14 (Homo sapiens, UniProt Q99558)", "remaining activity": "82.6%"}
{"target": "NEK1 (Homo sapiens, UniProt Q96PY6)", "remaining activity": "90.5%"}
{"target": "FGFR1 (Homo sapiens, UniProt P11362)", "remaining activity": "93.4%"}
{"target": "MERTK (Homo sapiens, UniProt Q12866)", "remaining activity": "87.7%"}
{"target": "MAP2K2 (Homo sapiens, UniProt P36507)", "remaining activity": "86.2%"}
{"target": "LCK (Homo sapiens, UniProt P06239)", "remaining activity": "48.9%"}
{"target": "JAK3 (Homo sapiens, UniProt P52333)", "remaining activity": "100%"}
{"data": "Block 4", "host": "human", "matrix": "microsomes or S9", "tested at": "2 µM", "time": "0.5 h"}
{"SMILES": "Cc1ncc(CN(C)c2nnc(C)c(C)c2C#N)s1", "remaining compound": "71.5%"}
{"SMILES": "COc1ccc(C#Cc2nc3ccc(C)cc3o2)cc1", "remaining compound": "53.6%"}
{"SMILES": "CN(C)CCn1c(=N)n(CC(O)c2ccc(Cl)c(Cl)c2)c2ccccc21 (stereo not shown)", "remaining compound": "68.5%"}
{"SMILES": "CCOC(=O)C1C2CN(c3ccc(C(=O)NCCNC(=O)N4CCN(C)CC4)cn3)CC21 (stereo not shown)", "remaining compound": "> 99%"}
{"SMILES": "O=C(COc1ccc2c3ccccc3n(C(=O)c3cccnc3)c2c1)N1CCCCC1", "remaining compound": "0.388%"}
{"SMILES": "Cc1cc(N)cc(Br)c1OCc1ccccc1", "remaining compound": "25.2%"}
{"SMILES": "CCn1[nH]/c(=N\\S(=O)(=O)c2ccc(C)cc2)c2cc3cccc(C)c3nc21", "remaining compound": "1.35%"}
{"SMILES": "COc1ccc2ccccc2c1CNCc1ccc(F)cc1", "remaining compound": "13.6%"}
{"SMILES": "Cc1ccc(S(=O)(=O)n2c(N)nc3ccccc32)cc1", "remaining compound": "57.6%"}
{"note": "Some of these lines once more (block 2):"}
{"Compound": "CN(C)CCOC(C)(c1ccccc1)c1ccccn1 (stereo not shown)", "inhibition [%]": -24}
{"Compound": "NCC(=O)CCC(=O)O", "inhibition [%]": -12.3}
